Measured values from different studies.
Protocols differ between the studies behind these lines.
Action: inhibitor
HDAC3: Histone deacetylase 3 (HDAC3, Homo sapiens, UniProt O15379)
Sequence of UniProt O15379 (whole entry, looked up): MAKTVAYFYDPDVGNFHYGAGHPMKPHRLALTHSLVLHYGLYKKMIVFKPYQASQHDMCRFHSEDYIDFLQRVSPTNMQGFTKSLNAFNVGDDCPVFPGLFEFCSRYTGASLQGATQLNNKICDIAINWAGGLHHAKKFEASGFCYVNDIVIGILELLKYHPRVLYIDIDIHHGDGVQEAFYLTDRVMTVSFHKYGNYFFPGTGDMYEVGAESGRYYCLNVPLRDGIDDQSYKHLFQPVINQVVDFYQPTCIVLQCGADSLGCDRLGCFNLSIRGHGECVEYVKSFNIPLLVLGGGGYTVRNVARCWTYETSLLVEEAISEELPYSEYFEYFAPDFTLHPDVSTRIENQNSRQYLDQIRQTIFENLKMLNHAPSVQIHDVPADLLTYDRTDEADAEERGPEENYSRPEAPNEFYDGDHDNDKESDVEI

SMILES | target | test | setting | IC50 [nM]
Cn1cc2c(n1)CN(C(=O)Nc1nc(-c3ccc(F)cc3)ccc1N)C2 | HDAC3 | deacetylase activity | co-expressed with NCOR2 | 20200
Cc1cc(CN(CCCCCCC(=O)NO)Cc2ccc(F)c(C)c2)ccc1F | HDAC3 | enzyme activity, fluorescence |  | 4700
O=c1c2ccccc2[s+]([O-])n1-c1ccccc1 (centres unmarked) | HDAC3 | enzyme activity |  | > 10000
O=C(NNCCCc1ccccc1)c1ccc(Br)cc1 | HDAC3 | enzyme activity |  | 24200
COCc1cc2c(cn1)CN(C(=O)Nc1nc(-c3ccc(F)cc3)ccc1N)C2 | HDAC3 | deacetylase activity | co-expressed with NCOR2 | > 30000
O=C(CCCC(=O)Nc1ccc(-[c-]2cccc2)cc1)NO.[Fe+2].c1cc[cH-]c1 | HDAC3 | enzyme activity, fluorescence |  | 3170
O=C(CCCCCCNCc1cccnc1)NO | HDAC3 | enzyme activity, fluorescence |  | 310
Nc1ccc(-c2ccccc2)cc1NC(=O)N1CCCCC1 | HDAC3 | enzyme activity |  | 1960
O=C(CCCCCCN(Cc1ccc(F)cc1)Cc1ccc(F)cc1)NO | HDAC3 | enzyme activity, fluorescence |  | 3600
Nc1ccc(-c2cccs2)cc1NC(=O)c1ccccc1 | HDAC3 | enzyme activity |  | 1680
O=C(CCCCCCNCc1ccccc1)NO | HDAC3 | enzyme activity, fluorescence |  | 430
O=c1c2ccccc2sn1-c1ccccc1 | HDAC3 | enzyme activity |  | 2720
O=C(C=Cc1ccc2c(c1)C(=O)N(Cc1ccccc1)CC2)NO | HDAC3 | enzyme activity |  | 200
O=C(CCCCCCC(=O)Nc1ccccc1-[c-]1cccc1)NO.[Fe+2].c1cc[cH-]c1 | HDAC3 | enzyme activity, fluorescence |  | 8
O=C(O)c1ccc(Cn2sc3ccccc3c2=O)cc1 | HDAC3 | enzyme activity |  | 5300
CN1CCN(C(=O)N(CCCCCCC(=O)NO)c2ccc(-c3ccc4cnn(C)c4c3)cc2)CC1 | HDAC3 | enzyme activity, fluorescence |  | 0.61
O=C(CCCCCCNCc1ccc2c(c1)OCO2)NO | HDAC3 | enzyme activity, fluorescence |  | 170
CCC(=O)CCCCC[C@@H]1NC(=O)[C@@H](C)n2nncc2[C@@H](CC(C)C)NC(=O)[C@H](Cc2c[nH]c3ccccc23)NC1=O | Histone deacetylase 3, with NCoR2 (HDAC3, Homo sapiens, UniProt O15379) | enzyme activity | complex with NCoR2 | 119
COc1ccc(CNCCCCCCC(=O)NO)cc1OC | HDAC3 | enzyme activity, fluorescence |  | 180
Nc1ccc(-c2ccncc2)cc1NC(=O)N1CCCCC1 | HDAC3 | enzyme activity |  | 10100

For quick reference, copied from above:
SMILES | target | test | setting | IC50 [nM]
O=c1c2ccccc2sn1-c1ccccc1 | HDAC3 | enzyme activity |  | 2720
